Published values collected from several papers.
Parts stem from different laboratories: compare values within a part only.

Series 1
Target: Ras GTPase-activating protein-binding protein 1, full length (G3BP1, Homo sapiens, UniProt Q13283)
Sequence of UniProt Q13283 (whole entry, looked up): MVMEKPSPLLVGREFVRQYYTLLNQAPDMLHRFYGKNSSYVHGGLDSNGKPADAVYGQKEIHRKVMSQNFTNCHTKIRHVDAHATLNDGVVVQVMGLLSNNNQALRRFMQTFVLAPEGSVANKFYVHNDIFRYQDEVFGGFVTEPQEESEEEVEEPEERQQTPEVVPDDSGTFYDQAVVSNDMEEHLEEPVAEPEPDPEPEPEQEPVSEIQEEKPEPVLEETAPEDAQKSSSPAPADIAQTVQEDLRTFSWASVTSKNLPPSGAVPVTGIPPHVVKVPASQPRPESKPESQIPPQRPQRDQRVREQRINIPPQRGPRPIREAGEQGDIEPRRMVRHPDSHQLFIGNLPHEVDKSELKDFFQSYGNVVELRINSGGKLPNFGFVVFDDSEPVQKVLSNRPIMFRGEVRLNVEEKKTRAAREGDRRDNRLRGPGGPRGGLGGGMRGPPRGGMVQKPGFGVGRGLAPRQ
Technique: RNA Bind-n-Seq
Form: RNA
Medium: in vitro
Concentration: 200 nM
Setting: whole 134-nt RNA, ends assumed
With: 150 mM KCl
Baseline: input library
Reading: higher = stronger binding
All sequences stand within: GGGAGUUCUACAGUCCGACGAUC … UGGAAUUCUCGGGUGUCAAGG
| Sequence | log2 enrichment |
| --- | --- |
| UCAAGUCCUGUGCUACACAUCGUAUGUACCGAAUCGGUUUGGAAAAAAAGGUGGAAAGUAUUAUGUUACGCCGUUCGGAUCUGCACUUCC | -0.635 |
| UAACUUUAGAGGAGGAUCUGAUGGAUAUGGCAGUGGACGUGGAUUUGGGGAUGGCUAUAAUGGGGAUGGAGGAGGACCUGGAGGUGGCAA | 0.763 |
| AGUCCUGUGCUACACAUCGUAUGUACCGAAUCGGUUUGGAAAAAAAGGAAAAAAAGGAAAGUAUUAUGUUACGCCGUUCGGAUCUGCACU | -1.03 |
| UCAAGUCCUGUGCUACACAUCGUAUGUACCGAAUCGGAGGAAAAAAAGGAAAGGAAAGUAUUAUGUUACGCCGUUCGGAUCUGCACUUCC | -0.777 |
| GUCCUGUGCUACACAUCGUAUGUACCGAAUCAAACCCAAACCCCCCCAAAUUUUUAAAAAAGUAUUAUGUUACGCCGUUCGGAUCUGCAC | -0.278 |
| UCAAGUCCUGUGCUACACAUCGUAUGUACCGAAUCGGGUGGGAGGGAAAAAGGGAAAGUAUUAUGUUACGCCGUUCGGAUCUGCACUUCC | 0.907 |
| CUCAAGUCCUGUGCUACACAUCGUAUGUACCGAAUCGGGAAGGAAGGGAAGGGAAAGUAUUAUGUUACGCCGUUCGGAUCUGCACUUCCA | 0.22 |
| CAAGUCCUGUGCUACACAUCGUAUGUACCGAAUCGGGGUUUUGGUUUUGGUUUUGGAAAGUAUUAUGUUACGCCGUUCGGAUCUGCACUU | -0.834 |
| GUCCUGUGCUACACAUCGUAUGUACCGAAUCGGGAAAAGGGGAAAAGGGGAAAAGGGGAAAGUAUUAUGUUACGCCGUUCGGAUCUGCAC | 0.235 |
| CCUGUGCUACACAUCGUAUGUACCGAAUCGGGAAAAAAGGGAAAAAAGGGGAAAAAAGGGAAAGUAUUAUGUUACGCCGUUCGGAUCUGC | -0.577 |
| UGGCCCUGGUGGCAUUCGGGGAGGAAGAGGUGGCCUCAUGGAUCGUGGUGGUCCCGGUGGAAUGUUCAGAGGUGGCCGUGGUGGAGACAG | 0.3 |
| AGUCCUGUGCUACACAUCGUAUGUACCGAAUCGGCCCCCGGCCCCCGGGGCCCCCGGGAAAGUAUUAUGUUACGCCGUUCGGAUCUGCAC | -0.953 |
| UGGCCCUGGUGGCAUGCGGGGAGGAAGAGGUGGCCUCAUGGAUCGUGGUGGUCCCGGAGGAAUGUUCAGAGGUGGCCGUGGUGGAGACAG | 0.0694 |
| UUUAUCAUGAGGAGCUCAACGCGCCCAUACGGAGAAACAAAGAAGAGCCCAAGGCCCGGCCCUUGAGAGUAGGUGACACGGAGAAGCCAG | -0.445 |

Series 2
Target: Prothrombin, mature alpha-thrombin (F2, Homo sapiens, UniProt P00734)
Technique: aptamer microarray, sandwich
Form: DNA with 2'F-ANA
Medium: in vitro
Concentration: 200 nM
Setting: whole 15-mer aptamer, many near background
With: Cy3 exosite-II aptamer, 400 nM
Reading: higher = stronger binding
Sequence: GGTTGGTGTGGTTGG
| Modification | mean fluorescence intensity [a.u.] |
| --- | --- |
| 2'F-ANA at 1 2 3 5 6 14 15 | 50 |
| 2'F-ANA at 1 2 4 6 8 9 10 11 12 14 15 | 64.7 |
| 2'F-ANA at 2 3 4 11 12 13 14 15 | 346 |
| 2'F-ANA at 1 2 3 7 8 10 12 14 15 | 54.6 |
| 2'F-ANA at 4 6 9 12 15 | 397 |
| 2'F-ANA at 1 4 5 7 12 14 | 45.2 |
| 2'F-ANA at 1 4 5 6 9 11 13 14 | 51.5 |
| 2'F-ANA at 1 3 4 5 6 7 8 10 11 15 | 49.7 |
| 2'F-ANA at 3 6 7 8 10 13 14 15 | 360 |
| 2'F-ANA at 1 2 3 5 6 8 10 11 12 15 | 55.9 |
| 2'F-ANA at 1 5 6 7 8 10 11 12 15 | 50 |
| 2'F-ANA at 1 2 4 5 6 7 8 9 15 | 62.9 |
| 2'F-ANA at 1 2 4 8 9 10 11 12 | 62.1 |
| 2'F-ANA at 1 3 4 7 9 14 15 | 62.1 |
| 2'F-ANA at 2 5 6 8 9 10 14 15 | 48.4 |
| 2'F-ANA at 3 6 7 8 9 11 14 15 | 506 |
| 2'F-ANA at 3 6 8 9 10 11 12 14 15 | 336 |
| 2'F-ANA at 1 2 3 8 9 11 12 13 14 | 102 |
| 2'F-ANA at 4 6 8 11 | 267 |
| 2'F-ANA at 3 4 5 6 10 14 | 47.9 |
| 2'F-ANA at 1 2 3 4 5 7 12 | 111 |

Series 3
Target: Interferon regulatory factor 7, full length, phosphomimetic (IRF7, Homo sapiens, UniProt Q92985, residues 1-503, S101K/S471D/S472D/S475D/S476D/S477D/S483D/S484D/S487D)
Technique: protein-binding microarray
Form: double-stranded DNA, one strand shown
Medium: in vitro
Concentration: 250 nM
Setting: 60-bp whole probe
With: salmon DNA 0.4 mg/ml
Baseline: random background probes
Reading: higher = stronger binding
All sequences stand within: GCCTAGCAC … GTCTTGATTCGCTTGACGCTGCTG
Residues (chain): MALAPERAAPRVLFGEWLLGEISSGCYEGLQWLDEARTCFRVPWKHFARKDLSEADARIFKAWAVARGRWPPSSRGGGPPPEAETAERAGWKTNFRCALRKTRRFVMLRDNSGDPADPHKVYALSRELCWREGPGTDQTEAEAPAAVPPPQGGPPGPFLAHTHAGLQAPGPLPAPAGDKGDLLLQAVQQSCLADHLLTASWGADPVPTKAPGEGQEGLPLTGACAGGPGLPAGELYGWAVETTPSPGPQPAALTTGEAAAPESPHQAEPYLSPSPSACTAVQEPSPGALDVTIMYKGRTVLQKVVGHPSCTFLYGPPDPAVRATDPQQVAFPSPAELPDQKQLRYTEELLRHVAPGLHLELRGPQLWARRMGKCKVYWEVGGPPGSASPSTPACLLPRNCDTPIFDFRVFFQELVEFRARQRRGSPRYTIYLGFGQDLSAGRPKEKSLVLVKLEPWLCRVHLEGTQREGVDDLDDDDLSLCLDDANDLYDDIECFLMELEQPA
| Sequence | log fluorescence [z-score] |
| --- | --- |
| CTGAGTCCCTATCTCCTCACGTGCTAG | 0.653 |
| TTAGGTTTCGGGTTTCCGTTAGTGCTA | 11.7 |
| GCGGGAGAAAGCAAGCCCAGGTGCTAG | -0.64 |
| GACGGTTTCCTTATCCTGTCGTGCTAG | 3.94 |
| TTAGGTCTCCTTCTCCTATAGTGCTAG | 1.05 |
| GACGTACTGGGACTGGGGACGTGCTAG | 0.0663 |
| TTAGGTATCGGGACTCGGTTAGTGCTA | 1.42 |
| CCAAGTCTTGTTTTACAATTGTGCTAG | 2.86 |
| TTAGGCCTGGGGACTGGGTTAGTGCTA | -0.646 |
| TTAGGTATCCTTATCCTTAAGTGCTAG | 0.928 |
| GACGGGTTCGGTTTCGGGACGTGCTAG | 6.91 |
| TCATCTCTGGCCCTCCTACTGTGCTAG | 0.196 |
| TTAGATCCCAGTATCGATTAGTGCTAG | 1.18 |
| TTAGATCTCAGAGTGGATTAGTGCTAG | 0.0337 |
| TCACTTATCCTATCAGTACTGTGCTAG | 0.957 |
| GACGGTATTGGGACTGGGGACGTGCTA | -0.354 |
| TTAGGTACCCTTCTCCTTTAGTGCTAG | 0.732 |
| CCAGGCTGAAAGACCTCTGAGTGCTAG | -0.752 |
| GACGGTTTCTGTTTCGGGACGTGCTAG | 10 |
| TTAGGTAGCCTTTTCCTTTAGTGCTAG | -0.241 |
| TTAGAAATTTCTTTCTAATTGTGCTAG | 0.427 |
| TTAGACTTCAGTCTCGATTAGTGCTAG | 1.59 |
| TTAGAACTGGGGACTGGATTTGTGCTA | -0.181 |
| GACGGTCTCCTTTTCCCGACGTGCTAG | 2.03 |
| GACGAACTGAGTCTCGCGACGTGCTAG | 0.0151 |

Series 4
Target: Histone acetyltransferase KAT6A, winged helix 2, GST fusion (KAT6A, Homo sapiens, UniProt Q92794, residues 85-181)
Technique: protein binding microarray
Form: double-stranded DNA, one strand shown
Medium: in vitro
Concentration: not given
Setting: 8-mer, flanks averaged, mean of 2 arrays, mostly near background
Baseline: not given
Reading: higher = stronger binding
Target sequence (chain): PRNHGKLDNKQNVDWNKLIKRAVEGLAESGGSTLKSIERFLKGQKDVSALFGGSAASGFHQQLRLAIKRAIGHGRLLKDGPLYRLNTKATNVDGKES
| Sequence | E-score |
| --- | --- |
| ATGTTTAC | 0.00857 |
| GACCCATA | -0.113 |
| AGACCATG | -0.102 |
| CGAATGGA | 0.0311 |
| CAAGCGCA | 0.17 |
| AGGTCAAA | -0.0987 |
| ACCGCGAC | 0.202 |
| CAGCTGGG | 0.0126 |
| ATCAAAGC | 0.0689 |
| AGCCTGAA | 0.00783 |
| TCAGGGAA | -0.00759 |
| ACCGAGAG | 0.154 |
| CACCAGTA | -0.104 |
| CACCAGCG | 0.141 |
| CGGATCCA | 0.0643 |
| AAACTAGC | 0.0397 |
| CATGGATC | -0.157 |
| TCATCACA | -0.176 |
| CCACGAGA | -0.0169 |
| CGGTTACC | 0.0385 |
| ATACGCCA | 0.0671 |
| AATTGCAG | 0.0473 |
| CACCGTTC | -0.0309 |
| GTAACATA | -0.0388 |
| AAAGGAGG | 0.04 |

Repeated from above (series 4):
| Sequence | E-score |
| --- | --- |
| AGACCATG | -0.102 |
| CGAATGGA | 0.0311 |
| CAAGCGCA | 0.17 |
| AGGTCAAA | -0.0987 |
| ACCGCGAC | 0.202 |
| CAGCTGGG | 0.0126 |
| ATCAAAGC | 0.0689 |
| AGCCTGAA | 0.00783 |
